Assay results from different studies.
Protocols differ between the studies behind these lines. ± gives the spread as reported.
MAPK14: Mitogen-activated protein kinase 14 (MAPK14, Homo sapiens, UniProt Q16539)
PTH1R: Parathyroid hormone/parathyroid hormone-related peptide receptor (PTH1R, Homo sapiens, UniProt Q03431)

COC(=O)c1c(O)cc(O)c(Cl)c1CCc1ccccc1Cc1ccc(Cl)cc1 — Kd (Endoplasmin (HSP90B1, Canis lupus familiaris, UniProt P41148); ligand displacement, FP): 4.2 µM
CNc1ccccc1C(=O)O[C@H]1C[C@H](n2cnc3c(N)ncnc32)O[C@@H]1COP(=O)(O)OP(=O)(O)O — Kd (Unconventional myosin-Va (Gallus gallus, UniProt Q02440, D297C/G292C/I296C/S293C/V295G); binding, ligand, stopped-flow FRET; 4 °C, together with: 2 mM MgCl2): 0.7 ± 0.26 µM
CC(=O)N[C@H]1[C@@H](OC(=O)NCCCOCCOCCOCCCNC(=O)O[C@H]2O[C@H](CNC(=O)OCCOCCOCCOCCOCCOCCOCCOCCOCCOCCOCCOCCOC(=O)NC[C@H]3O[C@H](OC(=O)NCCCOCCOCCOCCCNC(=O)O[C@H]4O[C@H](CO)[C@@H](O)[C@H](O)[C@H]4NC(C)=O)[C@H](NC(C)=O)[C@@H](O)[C@@H]3O)[C@@H](O)[C@H](O)[C@H]2NC(C)=O)O[C@H](CO)[C@@H](O)[C@@H]1O — Kd (wheat germ agglutinin; competitive ITC; together with: GlcNAc 10 mM competitor): 0.013 µM
Cc1cnccc1CN1C[C@@H](c2cc(F)c(F)c(F)c2)CC1=O — Kd (SV2A (Homo sapiens, UniProt Q7L0J3); saturation binding; control, pooled, frontal cortex P2 fraction): 0.0048 µM
CN(C)CCNC(=O)c1cccc2c(NCCCCc3c(N)nc(N)nc3N)c3ccccc3nc12 — Kd (RNA with U–U mismatch; binding, ITC; 25 °C, 2): 271 ± 83 µM
Cc1cn([C@H]2C[C@H](O)[C@@H](COP(=O)(O)O)O2)c(=O)[nH]c1=O — Kd (Thymidylate kinase (DTYMK, Homo sapiens, UniProt P23919); fluorescence competition; together with: MABA-dTDP): 2 µM
O=C(CCO)c1ccc(O)cc1 — Kd (Alpha-mannosidase (Canavalia ensiformis, UniProt C0HJB3); binding, surface plasmon resonance; 25 °C): 710 µM
CC[C@H](C)[C@H](NC(=O)[C@H](Cc1ccccc1)NC(=O)[C@@H]1CCn2cc(nn2)-c2cccc(c2)-c2cn(nn2)CC[C@H](NC(=O)[C@H](Cc2ccc(O)cc2)NC(=O)[C@H](CO)NC(=O)[C@H](CO)NC(=O)[C@@H](NC(=O)[C@H](CC(=O)O)NC(=O)[C@H](CO)NC(=O)[C@@H](NC(=O)[C@H](Cc2ccccc2)NC(=O)[C@@H](NC(=O)CNC(=O)[C@H](CCC(=O)O)NC(=O)[C@H](C)NC(=O)[C@@H](N)Cc2c[nH]cn2)[C@@H](C)O)[C@@H](C)O)C(C)C)C(=O)N[C@@H](CCC(=O)O)C(=O)NCC(=O)N[C@@H](CCC(N)=O)C(=O)N[C@@H](C)C(=O)N[C@@H](C)C(=O)N[C@@H](CCCCN)C(=O)N1)C(=O)N[C@@H](C)C(=O)N[C@@H](Cc1c[nH]c2ccccc12)C(=O)N[C@@H](CC(C)C)C(=O)N[C@H](C(=O)N[C@@H](CCCCN)C(=O)NCC(=O)N[C@@H](CCCNC(=N)N)C(N)=O)C(C)C — Kd (Glucagon-like peptide 1 receptor (Mus musculus, UniProt O35659); cell-free assay): 0.0048 µM
C[n+]1ccc(/C=N/NC(=O)c2cccc(C(=O)N/N=C/c3cc[n+](C)c4ccccc34)n2)c2ccccc21 — Kd (telomeric G4 DNA hybrid-1; binding, native ESI-MS; 100 mM trimethylammonium acetate; 1 mM KCl): 0.0044 µM
Oc1cc(-c2ccccc2Cl)[nH]n1 — Kd (MAPK14; binding, MST): 1150 µM
CC[C@H](C)[C@H](NC(=O)[C@H](CCC(=O)O)NC(=O)[C@H](CO)NC(=O)[C@@H](NC(=O)[C@@H](N)CO)C(C)C)C(=O)N[C@@H](CCC(N)=O)C(=O)N[C@@H](CC(C)C)C(=O)N[C@@H](CCSC)C(=O)N[C@@H](Cc1c[nH]cn1)C(=O)N[C@@H](CC(N)=O)C(=O)N[C@@H](CC(C)C)C(=O)NCC(=O)N[C@@H](CCCCN)C(=O)N[C@@H](Cc1c[nH]cn1)C(=O)N[C@@H](CC(C)C)C(=O)N[C@@H](CC(N)=O)C(=O)N[C@@H](CO)C(=O)N[C@@H](CCSC)C(=O)N[C@@H](CCC(=O)O)C(=O)N[C@@H](CCCNC(=N)N)C(=O)N[C@H](C(=O)N[C@@H](CCC(=O)O)C(=O)N[C@@H](Cc1c[nH]c2ccccc12)C(=O)N[C@@H](CC(C)C)C(=O)N[C@@H](CCCNC(=N)N)C(=O)N[C@@H](CCCCN)C(=O)N[C@@H](CCCCN)C(=O)N[C@@H](CC(C)C)C(=O)N[C@@H](CCC(N)=O)C(=O)N[C@@H](CC(=O)O)C(=O)N[C@H](C(=O)N[C@@H](Cc1c[nH]cn1)C(=O)N[C@@H](CC(N)=O)C(=O)N[C@@H](Cc1ccccc1)C(=O)N[C@@H](CCCCNC(=O)c1ccc2c(c1)C1(OC2=O)c2ccc(N(C)C)cc2Oc2cc(N(C)C)ccc21)C(N)=O)C(C)C)C(C)C — Kd (PTH1R; binding, NanoBRET kinetic binding; cells; pH 5.5, together with: TMR-labelled peptide tracer): 0.039 ± 0.006 µM
CCCN(CC(=O)N(CCC)CC(=O)N(CCC)CC(=O)N(CCC)CC(=O)N(CC(N)=O)Cc1cn(CCCNC(=O)CCCOc2cccc(-c3nc4ccc(-c5nc6ccc(N7CCN(C)CC7)cc6[nH]5)cc4[nH]3)c2)nn1)C(=O)CNCc1cn(CCCNC(=O)CCCOc2cccc(-c3nc4ccc(-c5nc6ccc(N7CCN(C)CC7)cc6[nH]5)cc4[nH]3)c2)nn1 — Kd (herring sperm DNA; binding, fluorescence): 0.06 ± 0.007 µM
O=C(O)COc1ccc(-c2ccccc2)cc1Br — Kd (Nuclear factor erythroid 2-related factor 2, Neh1 domain (NFE2L2, Homo sapiens, UniProt Q16236); binding): 1500 µM
CC(C)C[C@H](NC(=O)[C@H](CCCNC(=N)N)NC(=O)CNC(=O)CNC(=O)[C@H](CO)NC(=O)[C@H](Cc1c[nH]cn1)NC(=O)[C@H](Cc1c[nH]c2ccccc12)NC(=O)[C@H](CO)NC(=O)CNC(=O)[C@H](Cc1c[nH]c2ccccc12)NC(=O)CNC(=O)[C@H](C)NC(=O)[C@@H](NC(=O)[C@H](CCC(N)=O)NC(=O)[C@H](CS)NC(=O)[C@H](CCCNC(=N)N)NC(=O)[C@@H](NC(=O)CN)[C@@H](C)O)C(C)C)C(=O)N[C@@H](CO)C(=O)N[C@@H](CCCNC(=N)N)C(=O)N[C@@H](Cc1ccccc1)C(=O)N1CCC[C@H]1C(=O)N[C@@H](CCCNC(=N)N)C(=O)N[C@@H](Cc1ccccc1)C(=O)N[C@H](C(=O)N[C@@H](CC(N)=O)C(=O)N[C@H](C(=O)O)C(C)C)C(C)C — Kd (Toll-like receptor 4/MD-2 (TLR4/LY96, Homo sapiens, UniProt O00206+Q9Y6Y9); binding, ELISA): 0.229 µM
N=C(N)c1ccc2nc(-c3ccc(-c4nc5ccc(C(=N)N)cc5[nH]4)[se]3)[nH]c2c1 — Kd (λB site DNA hairpin; binding, surface plasmon resonance): 0.012 µM
O=c1c2ccccc2ncn1-c1ccccc1F — Kd (MAPK14; binding, microscale thermophoresis; saturation not reached): 893 µM
O=C(Cc1ccc(F)cc1)NCCOc1ccc(-c2ccc(F)cc2)nn1 — Kd (VSIR (Homo sapiens, UniProt Q9H7M9); binding, MST): 0.13 µM
CC[C@H](C)[C@H](NC(=O)[C@H](CCC(N)=O)NC(=O)[C@H](CS)NC(=O)[C@H](CC(C)C)NC(=O)[C@H](CCC(=O)O)NC(=O)[C@H](CCC(=O)O)NC(=O)[C@H](CC(=O)O)NC(=O)[C@@H](NC(=O)[C@@H](NC(=O)[C@@H](NC(=O)[C@H](CC(=O)O)NC(=O)[C@H](Cc1ccccc1)NC(=O)[C@@H](NC(=O)[C@H](C)NC(=O)[C@H](CC(N)=O)NC(=O)[C@H](CC(N)=O)NC(=O)CCNC(=O)CCNC(=O)CCCC[C@@H]1SC[C@@H]2NC(=O)N[C@@H]21)C(C)C)[C@@H](C)CC)[C@@H](C)CC)[C@@H](C)O)C(=O)N[C@@H](CCC(N)=O)C(=O)N[C@@H](CCC(=O)O)C(=O)N[C@@H](Cc1c[nH]c2ccccc12)C(N)=O — Kd (Microtubule-associated protein 1 light chain 3 beta (Homo sapiens, UniProt Q9GZQ8); binding, BLI; pH 7.4): 1.2 µM
COc1ccc2c(c1)c(=O)c1c(NCCCN3CCN(CCCN4C(=O)c5cccc6cc([N+](=O)[O-])cc(c56)C4=O)CC3)ccc3ncn2c31 — Kd (HSPA5 (Homo sapiens, UniProt P11021); binding, MST): 0.788 µM
CCc1nc2cc3ccccc3cc2cc1C(=O)N1CCC[C@H]1C(=O)N[C@@H](C/C=C\C[C@H](NC(=O)[C@@H]1CCCN1C(=O)c1cc2cc3ccccc3cc2nc1CC)C(=O)N[C@@H](CCCCN)C(=O)NCCCN)C(=O)N[C@@H](CCCCN)C(=O)NCCCN — Kd (HIV-1 frameshift site RNA; binding, surface plasmon resonance; pH 7.4): 1.24 µM
CC[C@H](C)[C@H](NC(=O)[C@H](C)NC(=O)[C@H](CCCNC(=N)N)NC(=O)[C@H](CC(C)C)NC(=O)[C@H](CCC(=O)O)NC(=O)c1ccc2c(c1)C(=O)OC21c2ccc(O)cc2Oc2cc(O)ccc21)C(=O)N[C@H](C(=O)N[C@@H](CCCCN)C(=O)N[C@@H](CCCCN)C(=O)N[C@H](C(=O)N[C@@H](Cc1c[nH]c2ccccc12)C(=O)N[C@@H](CCCCN)C(=O)N[C@@H](CCCNC(=N)N)C(=O)N[C@H](C(=O)N[C@@H](CO)C(=O)N[C@@H](CCSC)C(=O)N[C@@H](CCCCN)C(=O)N[C@@H](CC(C)C)C(=O)N[C@@H](CC(C)C)C(=O)N[C@@H](CC(=O)O)C(=O)N[C@@H](CCC(N)=O)C(=O)N[C@H](C(=O)N[C@H](C(=O)O)C(C)C)C(C)C)[C@@H](C)O)[C@@H](C)CC)[C@@H](C)CC — Kd (Calmodulin-1, N-lobe (Calm1, Rattus norvegicus, UniProt P0DP29); calmodulin N-domain binding, fluorescence anisotropy; pH 7.4, 22 °C, calcium-saturated, together with: CaM N-domain, fluorescein-Cav1.2 peptide): ≤ 0.07 µM
CSCC[C@H](NC(=O)[C@H](CC(C)C)NC(=O)[C@H](CCC(N)=O)NC(=O)[C@H](Cc1c[nH]cn1)NC(=O)[C@H](CCC(=O)O)NC(=O)[C@H](CO)NC(=O)[C@@H](NC(=O)[C@@H](N)CO)C(C)C)C(=O)N[C@@H](Cc1c[nH]cn1)C(=O)N[C@@H](CC(N)=O)C(=O)N[C@@H](CC(C)C)C(=O)NCC(=O)N[C@@H](CCCCN)C(=O)N[C@@H](Cc1c[nH]cn1)C(=O)N[C@@H](CC(C)C)C(=O)N[C@@H](CC(N)=O)C(=O)N[C@@H](CO)C(=O)N[C@@H](CCSC)C(=O)N[C@@H](CCC(=O)O)C(=O)N[C@@H](CCCNC(=N)N)C(=O)N[C@H](C(=O)N[C@@H](CCC(=O)O)C(=O)N[C@@H](Cc1c[nH]c2ccccc12)C(=O)N[C@@H](CC(C)C)C(=O)N[C@@H](CCCNC(=N)N)C(=O)N[C@@H](CCCCN)C(=O)N[C@@H](CCCCN)C(=O)N[C@@H](CC(C)C)C(=O)N[C@@H](CCC(N)=O)C(=O)N[C@@H](CC(=O)O)C(=O)N[C@H](C(=O)N[C@@H](Cc1c[nH]cn1)C(=O)N[C@@H](CC(N)=O)C(=O)N[C@@H](Cc1ccccc1)C(=O)N[C@@H](CCCCNC(=O)c1ccc2c(c1)C1(OC2=O)c2ccc(N(C)C)cc2Oc2cc(N(C)C)ccc21)C(N)=O)C(C)C)C(C)C — Kd (PTH1R; binding, NanoBRET kinetic binding; cells; pH 5.5, together with: TMR-labelled peptide tracer): 0.2 ± 0.11 µM
O=c1ccn(C2OC(COP(=O)(O)OP(=O)(O)OP(=O)(O)O)C(O)C2O)c(=O)[nH]1 (centres unmarked) — Kd (Uncharacterized protein (Trypanosoma brucei brucei, UniProt Q386Q8); binding, surface plasmon resonance; Trypanosoma brucei): 83.1 ± 0.5 µM

Repeated from above:
O=c1ccn(C2OC(COP(=O)(O)OP(=O)(O)OP(=O)(O)O)C(O)C2O)c(=O)[nH]1 (centres unmarked) — Kd (Uncharacterized protein (Trypanosoma brucei brucei, UniProt Q386Q8); binding, surface plasmon resonance; Trypanosoma brucei): 83.1 ± 0.5 µM
CC[C@H](C)[C@H](NC(=O)[C@H](C)NC(=O)[C@H](CCCNC(=N)N)NC(=O)[C@H](CC(C)C)NC(=O)[C@H](CCC(=O)O)NC(=O)c1ccc2c(c1)C(=O)OC21c2ccc(O)cc2Oc2cc(O)ccc21)C(=O)N[C@H](C(=O)N[C@@H](CCCCN)C(=O)N[C@@H](CCCCN)C(=O)N[C@H](C(=O)N[C@@H](Cc1c[nH]c2ccccc12)C(=O)N[C@@H](CCCCN)C(=O)N[C@@H](CCCNC(=N)N)C(=O)N[C@H](C(=O)N[C@@H](CO)C(=O)N[C@@H](CCSC)C(=O)N[C@@H](CCCCN)C(=O)N[C@@H](CC(C)C)C(=O)N[C@@H](CC(C)C)C(=O)N[C@@H](CC(=O)O)C(=O)N[C@@H](CCC(N)=O)C(=O)N[C@H](C(=O)N[C@H](C(=O)O)C(C)C)C(C)C)[C@@H](C)O)[C@@H](C)CC)[C@@H](C)CC — Kd (Calmodulin-1, N-lobe (Calm1, Rattus norvegicus, UniProt P0DP29); calmodulin N-domain binding, fluorescence anisotropy; pH 7.4, 22 °C, calcium-saturated, together with: CaM N-domain, fluorescein-Cav1.2 peptide): ≤ 0.07 µM
